Published values collected from several papers.
Every numbered part comes from another study and shows a few of its results, in no order.
Chain of UniProt Q96BR1 (whole entry, looked up): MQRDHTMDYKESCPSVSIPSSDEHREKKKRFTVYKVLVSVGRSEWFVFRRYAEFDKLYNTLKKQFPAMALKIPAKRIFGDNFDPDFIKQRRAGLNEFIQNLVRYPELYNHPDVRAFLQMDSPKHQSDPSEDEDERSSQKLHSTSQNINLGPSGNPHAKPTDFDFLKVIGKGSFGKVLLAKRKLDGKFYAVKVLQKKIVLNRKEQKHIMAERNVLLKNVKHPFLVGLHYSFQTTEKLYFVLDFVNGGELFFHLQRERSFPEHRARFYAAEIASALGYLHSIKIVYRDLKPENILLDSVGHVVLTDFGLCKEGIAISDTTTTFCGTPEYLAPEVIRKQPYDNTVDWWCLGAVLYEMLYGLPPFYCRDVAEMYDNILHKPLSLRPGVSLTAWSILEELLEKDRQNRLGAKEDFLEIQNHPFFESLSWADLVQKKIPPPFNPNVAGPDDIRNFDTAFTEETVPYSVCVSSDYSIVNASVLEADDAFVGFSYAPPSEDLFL
Chain of UniProt P09619 (whole entry, looked up): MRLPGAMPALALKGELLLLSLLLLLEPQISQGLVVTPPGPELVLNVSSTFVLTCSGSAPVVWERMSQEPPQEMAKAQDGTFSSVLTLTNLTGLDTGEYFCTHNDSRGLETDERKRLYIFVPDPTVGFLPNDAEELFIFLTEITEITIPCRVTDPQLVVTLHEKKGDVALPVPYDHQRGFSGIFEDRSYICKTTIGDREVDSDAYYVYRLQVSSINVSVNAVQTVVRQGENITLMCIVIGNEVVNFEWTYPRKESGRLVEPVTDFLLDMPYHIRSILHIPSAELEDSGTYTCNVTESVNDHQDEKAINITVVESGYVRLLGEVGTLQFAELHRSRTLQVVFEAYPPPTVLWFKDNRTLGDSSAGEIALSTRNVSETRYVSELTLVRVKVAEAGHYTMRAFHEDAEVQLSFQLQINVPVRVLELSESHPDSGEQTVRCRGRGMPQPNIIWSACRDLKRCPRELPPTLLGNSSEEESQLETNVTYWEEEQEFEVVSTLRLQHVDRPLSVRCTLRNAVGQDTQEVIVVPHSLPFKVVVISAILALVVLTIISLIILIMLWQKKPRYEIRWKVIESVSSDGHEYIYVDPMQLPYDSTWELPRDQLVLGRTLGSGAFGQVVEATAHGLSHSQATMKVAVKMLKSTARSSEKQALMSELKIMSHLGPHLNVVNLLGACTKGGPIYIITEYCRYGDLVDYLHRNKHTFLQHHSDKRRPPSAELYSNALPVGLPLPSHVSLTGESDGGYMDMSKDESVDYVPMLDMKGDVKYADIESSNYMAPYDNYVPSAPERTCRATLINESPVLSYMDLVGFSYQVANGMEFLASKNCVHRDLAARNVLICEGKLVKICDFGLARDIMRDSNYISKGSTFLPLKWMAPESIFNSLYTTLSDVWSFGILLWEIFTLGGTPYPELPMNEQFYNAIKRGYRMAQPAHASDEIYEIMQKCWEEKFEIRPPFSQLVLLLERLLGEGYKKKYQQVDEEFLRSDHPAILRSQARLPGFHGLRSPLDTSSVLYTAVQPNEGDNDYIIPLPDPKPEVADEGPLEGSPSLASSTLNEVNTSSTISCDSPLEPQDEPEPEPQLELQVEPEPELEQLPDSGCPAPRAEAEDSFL
Chain of UniProt Q04771 (whole entry, looked up): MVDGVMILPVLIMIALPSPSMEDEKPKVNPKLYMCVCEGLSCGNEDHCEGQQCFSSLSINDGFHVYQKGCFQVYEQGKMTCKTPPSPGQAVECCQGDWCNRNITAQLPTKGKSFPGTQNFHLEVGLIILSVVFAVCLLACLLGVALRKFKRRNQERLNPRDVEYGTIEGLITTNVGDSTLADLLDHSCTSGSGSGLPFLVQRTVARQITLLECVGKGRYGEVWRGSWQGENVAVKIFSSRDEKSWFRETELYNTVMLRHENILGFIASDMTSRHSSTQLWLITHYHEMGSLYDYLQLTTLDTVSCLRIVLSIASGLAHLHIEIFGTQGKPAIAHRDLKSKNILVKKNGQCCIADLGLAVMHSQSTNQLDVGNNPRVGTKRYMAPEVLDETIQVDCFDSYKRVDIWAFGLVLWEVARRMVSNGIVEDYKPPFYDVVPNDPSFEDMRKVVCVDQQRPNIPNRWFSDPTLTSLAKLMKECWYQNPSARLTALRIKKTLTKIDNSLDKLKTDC
Chain of UniProt Q6XUX3 (whole entry, looked up): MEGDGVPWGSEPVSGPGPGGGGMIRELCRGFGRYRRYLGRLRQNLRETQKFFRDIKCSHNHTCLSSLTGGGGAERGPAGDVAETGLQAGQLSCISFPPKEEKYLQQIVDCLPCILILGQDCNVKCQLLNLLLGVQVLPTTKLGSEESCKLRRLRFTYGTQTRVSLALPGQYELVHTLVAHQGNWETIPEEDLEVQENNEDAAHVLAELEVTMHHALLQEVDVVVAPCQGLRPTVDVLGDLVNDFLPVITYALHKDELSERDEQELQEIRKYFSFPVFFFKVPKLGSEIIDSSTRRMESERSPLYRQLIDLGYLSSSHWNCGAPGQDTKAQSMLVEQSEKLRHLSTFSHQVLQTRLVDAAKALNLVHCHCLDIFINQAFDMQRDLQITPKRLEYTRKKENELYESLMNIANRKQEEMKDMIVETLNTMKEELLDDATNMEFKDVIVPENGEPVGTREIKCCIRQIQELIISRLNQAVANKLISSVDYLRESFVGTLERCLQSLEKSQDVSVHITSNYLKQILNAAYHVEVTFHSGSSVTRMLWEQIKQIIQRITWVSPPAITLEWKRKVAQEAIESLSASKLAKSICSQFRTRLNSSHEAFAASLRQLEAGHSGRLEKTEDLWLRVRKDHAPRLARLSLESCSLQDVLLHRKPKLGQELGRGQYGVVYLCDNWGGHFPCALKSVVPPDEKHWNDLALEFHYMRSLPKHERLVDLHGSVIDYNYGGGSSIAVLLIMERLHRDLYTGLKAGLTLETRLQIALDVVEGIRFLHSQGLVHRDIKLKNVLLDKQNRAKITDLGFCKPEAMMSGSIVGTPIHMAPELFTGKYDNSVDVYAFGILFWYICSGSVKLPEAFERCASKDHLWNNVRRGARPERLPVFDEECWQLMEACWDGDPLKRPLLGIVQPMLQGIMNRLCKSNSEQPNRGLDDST
Chain of UniProt Q99986 (whole entry, looked up): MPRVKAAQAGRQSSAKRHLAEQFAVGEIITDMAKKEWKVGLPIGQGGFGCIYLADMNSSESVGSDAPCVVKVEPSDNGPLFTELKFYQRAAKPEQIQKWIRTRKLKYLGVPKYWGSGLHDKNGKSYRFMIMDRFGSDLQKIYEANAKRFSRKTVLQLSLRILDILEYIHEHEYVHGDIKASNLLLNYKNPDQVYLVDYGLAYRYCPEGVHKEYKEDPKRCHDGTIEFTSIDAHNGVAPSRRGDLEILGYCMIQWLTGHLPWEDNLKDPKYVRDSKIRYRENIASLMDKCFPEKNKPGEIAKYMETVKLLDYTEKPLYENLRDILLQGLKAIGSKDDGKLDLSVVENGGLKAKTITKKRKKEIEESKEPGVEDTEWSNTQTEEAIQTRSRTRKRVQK
Chain of UniProt P04049 (whole entry, looked up): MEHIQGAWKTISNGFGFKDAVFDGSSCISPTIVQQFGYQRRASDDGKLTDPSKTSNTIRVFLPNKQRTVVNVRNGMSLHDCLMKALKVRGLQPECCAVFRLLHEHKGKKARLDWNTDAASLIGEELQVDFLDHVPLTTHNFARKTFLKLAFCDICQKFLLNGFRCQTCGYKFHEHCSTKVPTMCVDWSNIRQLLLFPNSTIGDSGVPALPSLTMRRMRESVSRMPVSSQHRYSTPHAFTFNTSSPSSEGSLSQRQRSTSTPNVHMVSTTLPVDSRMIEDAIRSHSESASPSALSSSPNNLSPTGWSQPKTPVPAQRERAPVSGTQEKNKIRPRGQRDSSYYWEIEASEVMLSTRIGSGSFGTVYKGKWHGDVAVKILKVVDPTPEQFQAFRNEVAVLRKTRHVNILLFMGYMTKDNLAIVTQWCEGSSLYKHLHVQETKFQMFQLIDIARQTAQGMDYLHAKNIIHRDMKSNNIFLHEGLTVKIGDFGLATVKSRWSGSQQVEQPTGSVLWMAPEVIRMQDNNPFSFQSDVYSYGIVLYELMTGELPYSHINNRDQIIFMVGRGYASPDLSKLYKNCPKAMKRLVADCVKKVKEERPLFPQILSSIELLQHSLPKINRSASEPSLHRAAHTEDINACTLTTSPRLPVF

Sample 1
Effect on: AlphaScreen signal
Method: AlphaScreen counter screen
Matrix: His6 peptide without bromodomain
Tested at: 50 µM
Setting: assay interference check
Quantity: inhibition
Nc1nc(N2CCNCC2)c2nc[nH]c2n1: 7.6%
COc1ccc(N2C(=O)NC(=O)C(=CNc3ccc(F)cc3)C2=O)cc1: 1.05%
Cc1cccc(NC=C2C(=O)NC(=O)N(c3ccccc3)C2=O)c1: -3.6%
COc1cc(C2=C(c3c[nH]c4ccccc34)C(=O)NC2=O)cc(OC)c1OC: 57.9%

Sample 2
Target: Calcium/calmodulin-dependent protein kinase type II subunit alpha (CAMK2A, Homo sapiens, UniProt Q9UQM7)
Chain of UniProt Q9UQM7 (whole entry, looked up): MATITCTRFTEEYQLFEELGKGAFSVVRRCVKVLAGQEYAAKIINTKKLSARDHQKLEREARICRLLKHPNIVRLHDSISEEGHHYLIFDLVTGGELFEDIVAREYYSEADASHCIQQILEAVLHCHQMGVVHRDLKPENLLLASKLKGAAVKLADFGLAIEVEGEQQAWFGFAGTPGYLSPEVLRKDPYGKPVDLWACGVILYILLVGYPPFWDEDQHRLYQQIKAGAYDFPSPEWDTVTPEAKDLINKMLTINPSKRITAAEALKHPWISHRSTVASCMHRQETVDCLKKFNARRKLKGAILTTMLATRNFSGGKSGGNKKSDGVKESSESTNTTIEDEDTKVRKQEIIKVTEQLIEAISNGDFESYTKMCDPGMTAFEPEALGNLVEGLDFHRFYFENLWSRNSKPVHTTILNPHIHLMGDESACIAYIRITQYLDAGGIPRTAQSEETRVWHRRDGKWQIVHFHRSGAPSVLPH
Effect on: enzyme activity
Mode: inhibitor
Tested at: 10 µM
Quantity: inhibition
CN1C[C@H](CNC(=O)OCc2ccccc2)C[C@@H]2c3cccc4c3c(cn4C)C[C@H]21: -4%
c1ccc2c(c1)[nH]c1cnccc12: 14%
C[C@H](O)c1ccccc1: 0%
COc1cccc2c1cc([N+](=O)[O-])c1c(C(=O)O)cc3c(c12)OCO3: 8%
O=c1ccc2ccc3occc3c2o1: 17%
COc1cc2c3c(c1OC)-c1ccccc1C[C@H]3[N+](C)(C)CC2: 10%
C[C@H]1[C@H](c2ccc(Cl)cc2)SC(=O)N1C(=O)NC1CCCCC1: 16%
OC1C[C@H]2CC[C@@H](C1)N2 (some centres unmarked): -15%

Sample 3
SMILES: CCn1cnc2c(Nc3cccc(Cl)c3)nc(N[C@H]3CCCC[C@H]3N)nc21
Effect on: enzyme activity
Mode: inhibitor
Tested at: 0.5 µM
Relative to: control
Quantity: remaining activity
Dual serine/threonine and tyrosine protein kinase (DSTYK, Homo sapiens, UniProt Q6XUX3): 97.8%
Platelet-derived growth factor receptor beta (PDGFRB, Homo sapiens, UniProt P09619): 99.6%
Serine/threonine-protein kinase Sgk3 (SGK3, Homo sapiens, UniProt Q96BR1): 94.3%
RAF proto-oncogene serine/threonine-protein kinase (RAF1, Homo sapiens, UniProt P04049): 92.8%
Serine/threonine-protein kinase VRK1 (VRK1, Homo sapiens, UniProt Q99986): 103%
Activin receptor type-1 (ACVR1, Homo sapiens, UniProt Q04771): 92.7%

Single results of other studies
Target: Beta-1 adrenergic receptor (ADRB1, Homo sapiens, UniProt P08588)
Chain of UniProt P08588 (whole entry, looked up): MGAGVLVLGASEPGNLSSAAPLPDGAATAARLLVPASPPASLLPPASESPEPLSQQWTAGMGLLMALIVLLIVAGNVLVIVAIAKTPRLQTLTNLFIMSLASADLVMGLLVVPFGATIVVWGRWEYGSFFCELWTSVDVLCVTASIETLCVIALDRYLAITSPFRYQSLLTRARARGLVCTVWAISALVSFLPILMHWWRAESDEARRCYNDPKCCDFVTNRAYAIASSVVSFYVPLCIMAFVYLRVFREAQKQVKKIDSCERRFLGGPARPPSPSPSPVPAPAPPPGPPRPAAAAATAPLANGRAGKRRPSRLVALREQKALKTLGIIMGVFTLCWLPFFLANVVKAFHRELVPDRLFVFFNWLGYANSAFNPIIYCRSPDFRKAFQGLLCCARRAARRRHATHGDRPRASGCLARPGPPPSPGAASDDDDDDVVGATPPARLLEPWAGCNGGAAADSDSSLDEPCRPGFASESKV
Mode: agonist
CC(C)[C@@]1(NC(=O)[C@H]2C[C@H]3c4cccc5[nH]cc(c45)C[C@@H]3N(C)C2)O[C@]2(O)[C@H]3CCCN3C(=O)CN2C1=O — EC50: ≥ 100 µM
c1cc2c(c(N3CCNCC3)c1)OCCO2 — EC50: 3.55 µM

A few entries again (single results of other studies):
CC(C)[C@@]1(NC(=O)[C@H]2C[C@H]3c4cccc5[nH]cc(c45)C[C@@H]3N(C)C2)O[C@]2(O)[C@H]3CCCN3C(=O)CN2C1=O — EC50: ≥ 100 µM
c1cc2c(c(N3CCNCC3)c1)OCCO2 — EC50: 3.55 µM
